Measured values collected from several papers.
Each numbered part is a random draw from the data of one study; scales do not carry over between parts. Changes are numbered by the printed parent chain.

Sample 1
Target: RING finger protein unkempt homolog, zinc fingers 1-6, GST-SBP tag (UNK, Homo sapiens, UniProt Q9C0B0, residues 30-357)
Technique: RNA Bind-n-Seq
Molecule type: RNA
Matrix: in vitro
Tested at: not given
Setting: RNA with constant flanks, human-mouse chimeric sites, ends assumed
Reference: input RNA pool
Direction: higher = stronger binding
Constant ends, left off below: GGGAGUUCUACAGUCCGACGAUC … CAACAGAGGAUUGAGCAUCA
Target sequence (chain): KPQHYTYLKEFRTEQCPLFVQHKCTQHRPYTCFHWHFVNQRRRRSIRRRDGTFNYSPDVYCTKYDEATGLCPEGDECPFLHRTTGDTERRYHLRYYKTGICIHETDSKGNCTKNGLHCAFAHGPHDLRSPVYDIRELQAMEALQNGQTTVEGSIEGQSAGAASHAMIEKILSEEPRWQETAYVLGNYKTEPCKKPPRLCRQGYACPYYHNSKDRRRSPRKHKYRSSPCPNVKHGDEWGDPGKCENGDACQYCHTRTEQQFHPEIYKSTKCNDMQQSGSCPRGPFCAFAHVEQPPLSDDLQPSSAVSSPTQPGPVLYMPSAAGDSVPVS
`AUCAAAUAUUUUGGGGACAUCAUUAGUGUGGGACAGAGACUGUUGCAAGGAGCUCGGAUCUUAGGGAUUCCAGUUAUCAUAACGGAACAAUACCCCAAAGGUCUUGGCAGCACCGUUCAA` has a bound/input enrichment of 0.145 ratio.
`CACUCGAGGGCUGCCGUUUUCUGUUUCUCCCUGGGCUGCGGAAAGCCAGGCGGUUUUAUCUAGCUUAUACAAGGCUGCUGGUGUUCCCUCUUUUUUUCCACGAGGGUGUUUUUGGCUGCA` gave a bound/input enrichment of 1.46 ratio.
`UGGCGCCUGCGCUCCCCACUCGUGUUUUUAAGUGUAUUUUUAUAAGACAUGUGUAUUUACAAUUGAGCUUUUGUUACAUAAUGCUGAAAUGCUACUGGAGAUUAUGAAAAAUGUUUCAAU` has a bound/input enrichment of 0.149 ratio.
`ACCAUUUUCGCGGUUCAAGGUUUUGUGGUAGUUCACUUACGGUAUUAAAUUAUUAUUCUGCUUAGCUUAUAAUAAGGAUUACAAUUGUUAAAGAGGUUACUGAAUGUUACUCUGAAACUU` gave a bound/input enrichment of 0.925 ratio.
`UGACAAGGGCACUGCAGAGCCAUGCCUUUCCUUGACAUACAGAAAAAGCUGGGCAUCAGCCUGGACCGGCACUUUAUAAUCCAGAGUGCAGAACAGCCCUACAAGAUCGCCGCUCGGUGC` has a bound/input enrichment of 0.0743 ratio.
With `GGCUGCUGGUGACUGUCGGGAGCCGUCUGGAGUUCCCCCGGAACCUGGGCCAGACUAAUUUUAGAAAAUGCCAAGUAGGAAGUUUGUUGAGGGUGAAGUGGUCAGAGGCCGAUGGCCUGG` the bound/input enrichment was 2.31 ratio.
The bound/input enrichment of `GAGUCGAGCAAACUUGAAACAAUUCGUUUUACAAAAACCUCAGUGUUCACUUGCUUGGCGAUAGCAUUGGGGUUUUAUAGGUUCUGGAAGGAGAACUGACGAUGAUGCUGCCGCUGCUGC` is reported as 0.241 ratio.
`CUGUGUGUGCUGAAUAAAUGGCUUGUAAGAACUGUCCUCCAAGCUGUAACCCAUGCUGUUAUUAUAGUUGCUGCAAAAUGUUCUUCCUGAUAUUGAUUUUAUUUGUUAACUGAAGGUCUC` has a bound/input enrichment of 0.516 ratio.

Sample 2
Target: CCNB3, cyclin fold, Cln2 fusion (human)
Technique: yeast growth competition, sequencing
Matrix: yeast
Setting: weak parent motif
Reference: not given
Direction: higher = stronger binding
Parent: GMNC docking peptide (human); KNAKRNLSSEFAN
`S8K` — result for “normalised enrichment score”: 0.416.
Under “normalised enrichment score”, `A12H` is recorded as 0.0457.
Under “normalised enrichment score”, `L7C` is recorded as -0.03.
`K4E` — result for “normalised enrichment score”: -0.225.
Under “normalised enrichment score”, `N6H` is recorded as -0.00605.
Under “normalised enrichment score”, `N2L` is recorded as 0.664.
Under “normalised enrichment score”, `L7D` is recorded as 0.154.
Under “normalised enrichment score”, `S8W` is recorded as 0.12.
Under “normalised enrichment score”, `F11T` is recorded as 0.309.
For `F11A`, “normalised enrichment score” read 0.285.
`S9Y` — result for “normalised enrichment score”: 0.583.
`E10Q` — result for “normalised enrichment score”: 0.477.
`E10A`: “normalised enrichment score” 0.0393.
For `E10D`, “normalised enrichment score” read -0.153.
For `A3Q`, “normalised enrichment score” read 0.509.
For `R5K`, “normalised enrichment score” read 0.291.
Under “normalised enrichment score”, `N6Q` is recorded as 0.309.
Under “normalised enrichment score”, `S9L` is recorded as 0.359.
Under “normalised enrichment score”, `F11W` is recorded as 0.341.
`A3L`: “normalised enrichment score” 0.162.
Under “normalised enrichment score”, `R5V` is recorded as -0.307.
For `K4P`, “normalised enrichment score” read 0.348.
Under “normalised enrichment score”, `E10N` is recorded as -0.0881.
`R5D` — result for “normalised enrichment score”: -0.062.
`F11L`: “normalised enrichment score” -0.0363.

Sample 3
Target: ABI1, truncated, D143A, DHFR fusion (Arabidopsis thaliana)
Technique: DHFR PCA, deep sequencing
Matrix: yeast
Setting: methotrexate growth selection, single substitutions
With: (+)-ABA 0.032 µM
Reference: wild-type fitted maximum
Direction: higher = stronger binding
Parent: PYL1, truncated, DHFR fusion (Arabidopsis thaliana); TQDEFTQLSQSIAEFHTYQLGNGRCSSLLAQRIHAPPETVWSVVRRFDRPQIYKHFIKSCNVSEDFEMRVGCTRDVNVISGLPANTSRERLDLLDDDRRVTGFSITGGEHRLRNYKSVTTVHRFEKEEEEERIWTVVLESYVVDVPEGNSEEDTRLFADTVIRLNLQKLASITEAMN
`A35W`: “relative binding score” -2.7%.
`K58N` — result for “relative binding score”: -0.0415%.
`V142T` — result for “relative binding score”: 2.7%.
Under “relative binding score”, `R163P` is recorded as 7.11%.
For `L94P`, “relative binding score” read 4.45%.
`F47Y`: “relative binding score” -4.58%.
For `L156T`, “relative binding score” read 17.3%.
Under “relative binding score”, `L94F` is recorded as 37.7%.
Under “relative binding score”, `S117K` is recorded as 0.65%.
`E174R` — result for “relative binding score”: -3.89%.

Sample 4
Target: RNA binding protein fox-1 homolog 2, RRM domain, GST-SBP tag (RBFOX2, Homo sapiens, UniProt O43251-10, residues 100-194)
Technique: RNA Bind-n-Seq
Molecule type: RNA
Matrix: in vitro
Tested at: 365 nM
Setting: natural RNA segment, single round, ends assumed
Reference: no-protein control
Direction: higher = stronger binding
Constant ends, left off below: GGGAGUUCUACAGUCCGACGAUC … UGGAAUUCUCGGGUGCCAA
Construct (chain): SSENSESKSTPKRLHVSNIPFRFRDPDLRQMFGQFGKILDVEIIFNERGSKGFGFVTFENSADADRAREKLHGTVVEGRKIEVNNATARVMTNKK
Under “RBNS enrichment (R)”, `AGGAGGCUCACCCAUUCUUCUGAAUAGGAACUGGGUGUUCCCACCCCCCAAGGACUGCAGGGCUUUCCCAAGCUGAGGCAGGAACGUGAGGCCAGGGAAGAGUGAGCUUC` is recorded as 0.341.
Under “RBNS enrichment (R)”, `GAGGAUGUGAUAUGUGGGGGAGUGAGCACUGGGUUGGGAGCCGGGUCCUGGUUUCCAAUUUGGGUUCUGCUGUGUGACUCUGGGCAAGUCACUCUCCCUCUCUGGGCAUG` is recorded as 0.783.
Under “RBNS enrichment (R)”, `UUGGUAGAACACAACAUCUACCAUUCAGUUAAACCUUCUUUAUCUCCUCCUUUGGCAUCCAUUUUUCCAAAGAAGAGUCGAGUCCUCUGAGGUCUGUGCUUGAAAGCCGU` is recorded as 0.319.
Under “RBNS enrichment (R)”, `GCUCUUCUUCCUUUCUUCCCCCCGUGUAUGUAAAUGAAUUCCUGAACCCCAUACUUCACCUAAUGGUAGGGGCUUGCUUGUUUUGCACAGGAUUAAUUAACAAGUUAAUU` is recorded as 1.4.
`UCCCGUGGCUUUGCUUGAUCUGUUGUUGCUUCUCCUCAUCAAGACUUUGCAUCAUGUUAGCCAGCCAGUAUUUACUCAUUGUUAGGAAAAUCGAGCUGUGGCUGAAGACC`: “RBNS enrichment (R)” 0.626.
Under “RBNS enrichment (R)”, `ACUUGAUACUUAUGUAGAAUCCAUCGUGGGCUGAUGCAAGCCCUUUAUUUAGGCUUAGUGUUGUGGGCACCAAUGUCGAGCAUCGUUGUGACUUGUGCUGUAUGAUUCUC` is recorded as 2.2.
`UGAAAAAAUGGAGAGCAGUGUAAUAGACACACACUACAUCGGAAGAACUGACUUCUGAAACGAAGAGAAAAGCACCUAUGGAUCCCACUCCUUCCCAUCGCUUACCUGUU`: “RBNS enrichment (R)” 0.606.
`UCAAGAACUUCAUUUGCUUCAAAACAAGAUAAUGAACAGAAUGCAUUUGUAAAUGCAAGAUGCAUUGUAAAAUAAAGUUAAGCUUGUUUUUUUUUAAAAAAAACAAAGCA`: “RBNS enrichment (R)” 1.71.

Some of these lines once more (sample 1):
`UGACAAGGGCACUGCAGAGCCAUGCCUUUCCUUGACAUACAGAAAAAGCUGGGCAUCAGCCUGGACCGGCACUUUAUAAUCCAGAGUGCAGAACAGCCCUACAAGAUCGCCGCUCGGUGC` has a bound/input enrichment of 0.0743 ratio.
With `GGCUGCUGGUGACUGUCGGGAGCCGUCUGGAGUUCCCCCGGAACCUGGGCCAGACUAAUUUUAGAAAAUGCCAAGUAGGAAGUUUGUUGAGGGUGAAGUGGUCAGAGGCCGAUGGCCUGG` the bound/input enrichment was 2.31 ratio.
The bound/input enrichment of `GAGUCGAGCAAACUUGAAACAAUUCGUUUUACAAAAACCUCAGUGUUCACUUGCUUGGCGAUAGCAUUGGGGUUUUAUAGGUUCUGGAAGGAGAACUGACGAUGAUGCUGCCGCUGCUGC` is reported as 0.241 ratio.
`CUGUGUGUGCUGAAUAAAUGGCUUGUAAGAACUGUCCUCCAAGCUGUAACCCAUGCUGUUAUUAUAGUUGCUGCAAAAUGUUCUUCCUGAUAUUGAUUUUAUUUGUUAACUGAAGGUCUC` has a bound/input enrichment of 0.516 ratio.
